Assay results from different studies.
Lines come from different studies, so protocols differ. Numbers after ± are the reported error.
Technique: steady-state kinetics
B1: mtnK (Bacillus subtilis, UniProt O31663); chain MGVTKTPLYETLNESSAVALAVKLGLFPSKSTLTCQEIGDGNLNYVFHIYDQEHDRALIIKQAVPYAKVVGESWPLTIDRARIESSALIRQGEHVPHLVPRVFYSDTEMAVTVMEDLSHLKIARKGLIEGENYPHLSQHIGEFLGKTLFYSSDYALEPKVKKQLVKQFTNPELCDITERLVFTDPFFDHDTNDFEEELRPFVEKLWNNDSVKIEAAKLKKSFLTSAETLIHGDLHTGSIFASEHETKVIDPEFAFYGPIGFDVGQFIANLFLNALSRDGADREPLYEHVNQVWETFEETFSEAWQKDSLDVYANIDGYLTDTLSHIFEEAIGFAGCELIRRTIGLAHVADLDTIVPFDKRIGRKRLALETGTAFIEKRSEFKTITDVIELFKLLVKE
B2: BshA (Bacillus subtilis, UniProt P42982); chain MRKLKIGITCYPSVGGSGIIATELGKQLAEKGHEIHFITSSIPFRLNTYHPNIHFHEVEVNQYAVFKYPPYDLTLASKIAEVAERENLDIIHAHYALPHAVCAYLAKQMLKRNIGIVTTLHGTDITVLGYDPSLKDLIRFAIESSDRVTAVSSALAAETYDLIKPEKKIETIYNFIDERVYLKKNTAAIKEKHGILPDEKVVIHVSNFRKVKRVQDVIRVFRNIAGKTKAKLLLVGDGPEKSTACELIRKYGLEDQVLMLGNQDRVEDLYSISDLKLLLSEKESFGLVLLEAMACGVPCIGTNIGGIPEVIKNNVSGFLVDVGDVTAATARAMSILEDEQLSNRFTKAAIEMLENEFSSKKIVSQYEQIYADLAEPE
B3: enzyme R447A (Sinorhizobium meliloti, UniProt Q92UV7); chain MTNAEVTIAVRHEPMRIAGRLVDTDDRVEVRYPWNDTVVGTVPAGRAEHAREAFAIAAAYQPKLTRYERQKILLATAEALAARKEEISDVITLELGISKADSLYEVGRAFDVFTLAGQMCIRDDGEIFSCDLTPHGKARKIFTMREPLTAISAITPFNHPLNMVAHKVAPAIATNNCVVVKPTELTPMTALLLADILYEAGLPPEMLSVVTGWPADIGMEMITNPHVDLVTFTGSVPVGKLIAANAHYKRQVLELGGNDPLIILNDLSDDDLARAADLAVAGATKNSGQRCTAVKRILCQESVADRFVPLVLERAKRLRFGDPMDRSTDLGTVIHEKAAALFEERVMRAAEEGADILYHPGRSGALLPPIVVDRVPHQSDLVLEETFGPIIPIVRVPDDDDATITLSNSTAFGLSSGVCTNDYRRMQKYIAGLKVGTVNIWEVPGYAIEMSPFGGIKDSGNGYKEGVIEAMKSFTNVKTFSLPWP
B4: enzyme (Mortierella alpina, UniProt U5Y6A8); chain MAPPHVVDEQVRRRIVVEDEIQSKKQFERNYVPMDFTIKEIRDAIPAHLFIRDTTKSILHVVKDLVTIAIVFYCATFIETLPSLALRVPAWITYWIIQGTVMVGPWILAHECGHGAFSDSKTINTIFGWVLHSALLVPYQAWAMSHSKHHKGTGSMSKDVVFIPATRSYKGLPPLEKPAAEEEVLEQEHHHHEESIFAETPIYTLGALFFVLTLGWPLYLIMNFSGHEAPHWVNHFQTVAPLYEPHQRKNIFYSNCGIVAMGSILTYLSMVFSPLTVFMYYGIPYLGVNAWIVCITYLQHTDPKVPHFRDNEWNFQRGAACTIDRSFGTIVNHLHHHIGDSHQCHHMFSQMPFYNAVEATKHLKAKLGKYYIFDDTPIAKALYRNWRECKFVEDEGDVVFYKH
B5: protein Y93C (Thermus thermophilus, UniProt Q5SKR5); chain MSAPKPFVIGIAGGTASGKTTLAQALARTLGERVALLPMDHYYKDLGHLPLEERLRVNYDHPDAFDLALYLEHAQALLRGLPVEMPVYDFRACTRSPRRTPVRPAPVVILEGILVLYPKELRDLMDLKVFVDADADERFIRRLKRDVLERGRSLEGVVAQYLEQVKPMHLHFVEPTKRYADVIVPRGGQNPVALEMLAAKALARLARMGAA
B6: Mj-MAT W387F/Y233W (Methanocaldococcus jannaschii, UniProt Q58605); chain MRNIIVKKLDVEPIEERPTEIVERKGLGHPDSICDGIAESVSRALCKMYMEKFGTILHHNTDQVELVGGHAYPKFGGGVMVSPIYILLSGRATMEILDKEKNEVIKLPVGTTAVKAAKEYLKKVLRNVDVDKDVIIDCRIGQGSMDLVDVFERQKNEVPLANDTSFGVGYAPLSTTERLVLETERFLNSDELKNEIPAVGEDIKVMGLREGKKITLTIAMAVVDRYVKNIEEWKEVIEKVRKKVEDLAKKIADGYEVEIHINTADDYERESVYLTVTGTSAEMGDDGSVGRGNRVNGLITPFRPMSMEAASGKNPVNHVGKIYNILANLIANDIAKLEGVKECYVRILSQIGKPINEPKALDIEIITEDSYDIKDIEPKAKEIANKFLDNIMEVQKMIVEGKVTTF
B7: MCAT R178G (Homo sapiens, UniProt Q8IVS2); chain GQGSQVVGMGRGLLNYPRVRELYAAARRVLGYDLLELSLHGPQETLDRTVHCQPAIFVASLAAVEKLHHLQPSVIENCVAAAGFSVGEFAALVFAGAMEFAEGLYAVKIGAEAMQEASEAVPSGMLSVLGQPQSKFNFACLEAREHCKSLGIENPVCEVSNYLFPDCRVISGHQEALRFLQKNSSKFHFRRTRMLPVSGAFHTRLMEPAVEPLTQALKAVDIKKPLVSVYSNVHAHRYRHPGHIHKLLAQQLVSPVKWEQTMHAIYERKKGRGFPQTFEVGPGRQLGAILKSCNMQAWKSYSAVDVL
B8: Saccharopine reductase Y99F (Saccharomyces cerevisiae, UniProt P38999); chain MGKNVLLLGSGFVAQPVIDTLAANDDINVTVACRTLANAQALAKPSGSKAISLDVTDDSALDKVLADNDVVISLIPYTFHPNVVKSAIRTKTDVVTSSFISPALRELEPEIVKAGITVMNEIGLDPGIDHLYAVKTIDEVHRAGGKLKSFLSYCGGLPAPEDSDNPLGYKFSWSSRGVLLALRNSAKYWKDGKIETVSSEDLMATAKPYFIYPGYAFVCYPNRDSTLFKDLYHIPEAETVIRGTLRYQGFPEFVKALVDMGMLKDDANEIFSKPIAWNEALKQYLGAKSTSKEDLIASIDSKATWKDDEDRERILSGFAWLGLFSDAKITPRGNALDTLCARLEELMQYEDNERDMVVLQHKFGIEWADGTTETRTSTLVDYGKVGGYSSMAATVGYPVAIATKFVLDGTIKGPGLLAPYSPEINDPIMKELKDKYGIYLKEKTVA
B9: Nudt8 (Mus musculus, UniProt Q9CR24); chain MLPDGLSAEDEQRCRQLLARTTARLRSRPAAAAVLVPLCLVRGVPALLYTLRSSRLVGRHKGEVSFPGGKCDPDDQDVIHTALRETQEELGLEVPKEHVWGVLQPVYDREKATIVPVLANVGPLDLQSLRPNLEEVDEVFEMSLAHLLQTQNQGYTHFCQGGHFSYTLPVFLHGPHRVWGLTAVITELTLKLLAPGFYQPSLAVPELPRG
Chain of UniProt Q6PHW0 (whole entry, looked up): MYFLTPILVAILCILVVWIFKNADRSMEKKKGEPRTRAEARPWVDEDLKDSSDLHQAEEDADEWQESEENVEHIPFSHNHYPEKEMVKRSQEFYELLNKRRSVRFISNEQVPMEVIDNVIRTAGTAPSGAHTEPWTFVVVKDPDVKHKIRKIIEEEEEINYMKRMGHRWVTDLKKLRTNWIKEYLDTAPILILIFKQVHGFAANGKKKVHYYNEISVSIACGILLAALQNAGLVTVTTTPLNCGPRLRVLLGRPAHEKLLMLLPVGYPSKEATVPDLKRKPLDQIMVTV
Chain of UniProt Q8QZR1 (whole entry, looked up): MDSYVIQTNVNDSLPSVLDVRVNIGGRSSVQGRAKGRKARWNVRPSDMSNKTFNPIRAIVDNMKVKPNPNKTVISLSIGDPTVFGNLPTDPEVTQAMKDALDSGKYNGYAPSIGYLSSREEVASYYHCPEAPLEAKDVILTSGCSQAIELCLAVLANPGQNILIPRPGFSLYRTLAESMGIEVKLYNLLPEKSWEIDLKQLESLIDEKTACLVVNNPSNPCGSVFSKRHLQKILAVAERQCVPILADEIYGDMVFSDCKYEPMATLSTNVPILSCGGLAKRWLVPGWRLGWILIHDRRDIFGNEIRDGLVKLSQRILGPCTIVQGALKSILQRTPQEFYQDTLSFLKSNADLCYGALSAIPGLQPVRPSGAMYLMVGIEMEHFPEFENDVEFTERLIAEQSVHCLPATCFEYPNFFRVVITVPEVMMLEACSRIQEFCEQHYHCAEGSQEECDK
Chain of UniProt P15424 (whole entry, looked up): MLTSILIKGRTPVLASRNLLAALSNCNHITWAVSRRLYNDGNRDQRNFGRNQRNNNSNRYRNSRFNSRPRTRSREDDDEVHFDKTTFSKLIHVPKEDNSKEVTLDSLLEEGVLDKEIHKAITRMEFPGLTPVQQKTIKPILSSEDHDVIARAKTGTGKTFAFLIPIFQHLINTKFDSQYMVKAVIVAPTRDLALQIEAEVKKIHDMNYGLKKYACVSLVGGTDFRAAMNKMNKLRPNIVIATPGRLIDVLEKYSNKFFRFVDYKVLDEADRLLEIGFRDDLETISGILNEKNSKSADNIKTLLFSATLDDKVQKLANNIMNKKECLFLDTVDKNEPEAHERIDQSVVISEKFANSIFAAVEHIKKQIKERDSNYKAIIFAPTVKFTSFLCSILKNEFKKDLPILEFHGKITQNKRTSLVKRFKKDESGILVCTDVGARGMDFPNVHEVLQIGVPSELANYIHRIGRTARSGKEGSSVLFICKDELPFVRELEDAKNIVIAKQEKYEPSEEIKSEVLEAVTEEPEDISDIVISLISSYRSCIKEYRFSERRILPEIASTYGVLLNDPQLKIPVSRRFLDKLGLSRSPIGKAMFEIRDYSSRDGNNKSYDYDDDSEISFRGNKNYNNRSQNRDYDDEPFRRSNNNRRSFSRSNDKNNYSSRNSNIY
Chain of UniProt Q6WZB0 (whole entry, looked up): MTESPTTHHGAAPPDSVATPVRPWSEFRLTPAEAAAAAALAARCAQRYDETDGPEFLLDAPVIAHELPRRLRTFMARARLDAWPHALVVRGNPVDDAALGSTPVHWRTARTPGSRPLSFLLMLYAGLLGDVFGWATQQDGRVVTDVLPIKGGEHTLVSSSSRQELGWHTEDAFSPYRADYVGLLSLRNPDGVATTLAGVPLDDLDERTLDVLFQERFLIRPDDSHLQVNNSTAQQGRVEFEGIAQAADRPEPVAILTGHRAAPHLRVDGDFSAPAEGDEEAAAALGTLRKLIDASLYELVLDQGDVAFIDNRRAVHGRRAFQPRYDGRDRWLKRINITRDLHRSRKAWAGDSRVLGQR
Chain of UniProt P45370 (whole entry, looked up): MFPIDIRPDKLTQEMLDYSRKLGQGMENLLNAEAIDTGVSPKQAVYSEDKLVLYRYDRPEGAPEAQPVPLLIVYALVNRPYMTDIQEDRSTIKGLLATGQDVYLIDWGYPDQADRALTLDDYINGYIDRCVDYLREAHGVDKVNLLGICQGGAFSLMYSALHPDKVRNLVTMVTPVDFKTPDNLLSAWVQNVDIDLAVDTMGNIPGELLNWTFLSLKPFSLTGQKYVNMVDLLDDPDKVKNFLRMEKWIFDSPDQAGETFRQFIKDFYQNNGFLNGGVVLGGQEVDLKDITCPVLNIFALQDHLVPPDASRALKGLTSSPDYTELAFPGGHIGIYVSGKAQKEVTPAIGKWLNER

`B1 (mtnK)` gave a kcat of 1.9 s⁻¹ (Nc1ncnc2c1ncn2[C@@H]1O[C@H](COP(=O)(O)OP(=O)(O)OP(=O)(O)O)[C@@H](O)[C@H]1O; pH 7.8, 30 °C, with: 5-methylthioribose).
With `protein (Triticum aestivum, UniProt G9M5S8)` the kcat was 0.45 ± 0.01 s⁻¹ (CC(C)=CCC/C(C)=C/CC/C(C)=C/CO[P@@](=O)(O)OP(=O)(O)O; 30 °C).
`B2 (BshA)` has a kcat of 2.63 ± 0.07 s⁻¹ (CC(=O)N[C@H]1[C@@H](OP(=O)(O)OP(=O)(O)OC[C@H]2O[C@@H](n3ccc(=O)[nH]c3=O)[C@H](O)[C@@H]2O)O[C@H](CO)[C@@H](O)[C@@H]1O; pH 7.5, 21 °C, with: malate 0–25 mM).
For `MSS116 (Saccharomyces cerevisiae, UniProt P15424)`, the kcat was 0.075 ± 0.0183 s⁻¹ (Nc1ncnc2c1ncn2[C@@H]1O[C@H](COP(=O)(O)OP(=O)(O)OP(=O)(O)O)[C@@H](O)[C@H]1O; pH 7.5, 37 °C, with: ATP).
`B3 (enzyme R447A)` gave a kcat of 0.076 ± 0.003 s⁻¹ (NC(=O)c1ccc[n+]([C@@H]2O[C@H](COP(=O)(O)OP(=O)(O)OC[C@H]3O[C@@H](n4cnc5c(N)ncnc54)[C@H](O)[C@@H]3O)[C@@H](O)[C@H]2O)c1; pH 7.5, 30 °C, cofactor varied).
`protein (Allochromatium vinosum, UniProt P45370)` has a kcat of 12.7 s⁻¹ (C=CC[C@@H](O)CC(=O)SCCNC(=O)CCNC(=O)[C@H](O)C(C)(C)COP(=O)(O)OP(=O)(O)OC[C@H]1O[C@@H](n2cnc3c(N)ncnc32)[C@H](O)[C@@H]1OP(=O)(O)O; pH 7.8, 30 °C).
`B4 (enzyme)` gave a kcat of 0.187 ± 0.01 s⁻¹ (CCCCC/C=C\C/C=C\CCCCCCCC(=O)SCCNC(=O)CCNC(=O)[C@H](O)C(C)(C)COP(=O)(O)OP(=O)(O)OC[C@H]1O[C@@H](n2cnc3c(N)ncnc32)[C@H](O)[C@@H]1OP(=O)(O)O; pH 7.5, 28 °C).
`enzyme (Thermobifida fusca, UniProt Q47RK4)` gave a kcat of 0.005333 ± 3.67e-05 s⁻¹ (CC(C)(COP(=O)(O)OP(=O)(O)OC[C@H]1O[C@@H](n2cnc3c(N)ncnc32)[C@H](O)[C@@H]1OP(=O)(O)O)[C@@H](O)C(=O)NCCC(=O)NCCSC(=O)CCC(=O)O; pH 7.4, 37 °C).
`B5 (protein Y93C)` gave a kcat of 1.9 ± 0.4 s⁻¹ (Nc1ccn([C@@H]2O[C@H](CO)[C@@H](O)[C@H]2O)c(=O)n1; pH 7.2, 25 °C, KCl 100 mM, with: ATP 100–200 µM).
The kcat of `enzyme (Pseudomonas putida, UniProt F8G0M2)` is reported as 542 ± 9 s⁻¹ (O=CNC(=O)/C=C\C(=O)O; pH 6.7, 25 °C).
`IYD (Homo sapiens, UniProt Q6PHW0)` has a kcat of 0.06 ± 0.008 s⁻¹ (N[C@@H](Cc1cc(F)c(O)c(I)c1)C(=O)O; pH 7.4, 25 °C, with: sodium dithionite 0.5%).
For `vioC (Streptomyces vinaceus, UniProt Q6WZB0)`, the kcat was 13.8 ± 2.77 s⁻¹ (N=C(N)NCCCC[C@H](N)C(=O)O; pH 8, 30 °C, with: alpha-ketoglutarate 1.0 mM).
The kcat of `B6 (Mj-MAT W387F/Y233W)` is reported as 7.24 ± 0.08 s⁻¹ (CSCC[C@H](N)C(=O)O; 55 °C, with: ATP 2.5 mM, methionine 0.05-1 mM).
The kcat of `B7 (MCAT R178G)` is reported as 0.00283 ± 0.000333 s⁻¹ (CC(C)(COP(=O)(O)OP(=O)(O)OC[C@H]1O[C@@H](n2cnc3c(N)ncnc32)[C@H](O)[C@@H]1OP(=O)(O)O)[C@@H](O)C(=O)NCCC(=O)NCCSC(=O)CC(=O)O; pH 6.8, 20 °C, labelled substrate, with: holo-ACP 20 µM).
`B8 (Saccharopine reductase Y99F)` gave a kcat of 0.29 ± 0.01 s⁻¹ (NC(=O)c1ccc[n+]([C@@H]2O[C@H](COP(=O)(O)OP(=O)(O)OC[C@H]3O[C@@H](n4cnc5c(N)ncnc54)[C@H](OP(=O)(O)O)[C@@H]3O)[C@@H](O)[C@H]2O)c1; pH 9, 25 °C, with: saccharopine).
The kcat of `B9 (Nudt8)` is reported as 2.48 ± 0.183 s⁻¹ (CCCCCC(=O)SCCNC(=O)CCNC(=O)[C@H](O)C(C)(C)COP(=O)(O)OP(=O)(O)OC[C@H]1O[C@@H](n2cnc3c(N)ncnc32)[C@H](O)[C@@H]1OP(=O)(O)O; pH 8.5, with: 2 mM Mn2+).
With `Tat (Mus musculus, UniProt Q8QZR1)` the kcat was 25.7 ± 1.33 s⁻¹ (O=C(O)CCC(=O)C(=O)O; pH 7, 38 °C, with: PLP).

For quick reference, copied from above:
`protein (Allochromatium vinosum, UniProt P45370)` has a kcat of 12.7 s⁻¹ (C=CC[C@@H](O)CC(=O)SCCNC(=O)CCNC(=O)[C@H](O)C(C)(C)COP(=O)(O)OP(=O)(O)OC[C@H]1O[C@@H](n2cnc3c(N)ncnc32)[C@H](O)[C@@H]1OP(=O)(O)O; pH 7.8, 30 °C).
